Assay results gathered from unrelated publications.
Each numbered part is a random draw from the data of one study; scales do not carry over between parts. “And” joins repeats or separate records; there may be more than shown.
UniProt P10721, sequence (whole entry, unmodified, looked up): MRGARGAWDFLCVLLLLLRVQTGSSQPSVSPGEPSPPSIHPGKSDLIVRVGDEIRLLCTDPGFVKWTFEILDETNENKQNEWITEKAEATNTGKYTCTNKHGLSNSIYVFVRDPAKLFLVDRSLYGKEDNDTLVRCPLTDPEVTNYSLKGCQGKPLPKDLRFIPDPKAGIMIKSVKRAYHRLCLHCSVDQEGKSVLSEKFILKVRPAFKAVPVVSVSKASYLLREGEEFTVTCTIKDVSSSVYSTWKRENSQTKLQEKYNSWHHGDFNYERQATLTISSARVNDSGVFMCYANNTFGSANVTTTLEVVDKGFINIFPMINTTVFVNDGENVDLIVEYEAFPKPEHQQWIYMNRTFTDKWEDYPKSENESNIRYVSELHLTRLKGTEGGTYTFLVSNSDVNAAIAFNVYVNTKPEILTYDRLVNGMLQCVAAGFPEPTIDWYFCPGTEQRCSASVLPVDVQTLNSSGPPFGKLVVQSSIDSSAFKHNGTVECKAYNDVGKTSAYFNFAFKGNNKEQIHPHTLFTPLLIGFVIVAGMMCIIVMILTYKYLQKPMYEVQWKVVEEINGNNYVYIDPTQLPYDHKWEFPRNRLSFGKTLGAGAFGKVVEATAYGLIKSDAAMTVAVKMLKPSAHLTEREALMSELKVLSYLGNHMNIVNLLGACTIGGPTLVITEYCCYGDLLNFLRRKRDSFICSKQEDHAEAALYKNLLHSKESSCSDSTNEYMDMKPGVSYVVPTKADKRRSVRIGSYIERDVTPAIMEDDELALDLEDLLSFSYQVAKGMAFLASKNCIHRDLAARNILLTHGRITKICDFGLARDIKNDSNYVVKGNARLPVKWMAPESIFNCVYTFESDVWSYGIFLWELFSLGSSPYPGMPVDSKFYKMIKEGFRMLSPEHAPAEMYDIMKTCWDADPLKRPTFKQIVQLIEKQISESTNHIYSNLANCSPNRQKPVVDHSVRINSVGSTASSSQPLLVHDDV
UniProt O96017, sequence (whole entry, looked up): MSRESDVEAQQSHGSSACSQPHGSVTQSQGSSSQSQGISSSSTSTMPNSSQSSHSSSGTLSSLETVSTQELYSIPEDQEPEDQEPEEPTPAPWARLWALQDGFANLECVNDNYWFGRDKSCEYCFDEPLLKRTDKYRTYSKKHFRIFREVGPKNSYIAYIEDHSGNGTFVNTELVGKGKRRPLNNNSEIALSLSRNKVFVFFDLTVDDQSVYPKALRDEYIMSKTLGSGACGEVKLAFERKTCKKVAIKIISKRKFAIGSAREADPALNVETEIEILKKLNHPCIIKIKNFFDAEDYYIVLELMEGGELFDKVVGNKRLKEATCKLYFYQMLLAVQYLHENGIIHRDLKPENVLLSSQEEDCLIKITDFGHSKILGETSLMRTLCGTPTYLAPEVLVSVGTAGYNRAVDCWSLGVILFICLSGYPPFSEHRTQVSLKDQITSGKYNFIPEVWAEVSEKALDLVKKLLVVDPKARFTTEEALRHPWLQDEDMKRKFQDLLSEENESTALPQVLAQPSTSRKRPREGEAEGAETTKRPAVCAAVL
UniProt P07949, sequence (whole entry, unmodified, looked up): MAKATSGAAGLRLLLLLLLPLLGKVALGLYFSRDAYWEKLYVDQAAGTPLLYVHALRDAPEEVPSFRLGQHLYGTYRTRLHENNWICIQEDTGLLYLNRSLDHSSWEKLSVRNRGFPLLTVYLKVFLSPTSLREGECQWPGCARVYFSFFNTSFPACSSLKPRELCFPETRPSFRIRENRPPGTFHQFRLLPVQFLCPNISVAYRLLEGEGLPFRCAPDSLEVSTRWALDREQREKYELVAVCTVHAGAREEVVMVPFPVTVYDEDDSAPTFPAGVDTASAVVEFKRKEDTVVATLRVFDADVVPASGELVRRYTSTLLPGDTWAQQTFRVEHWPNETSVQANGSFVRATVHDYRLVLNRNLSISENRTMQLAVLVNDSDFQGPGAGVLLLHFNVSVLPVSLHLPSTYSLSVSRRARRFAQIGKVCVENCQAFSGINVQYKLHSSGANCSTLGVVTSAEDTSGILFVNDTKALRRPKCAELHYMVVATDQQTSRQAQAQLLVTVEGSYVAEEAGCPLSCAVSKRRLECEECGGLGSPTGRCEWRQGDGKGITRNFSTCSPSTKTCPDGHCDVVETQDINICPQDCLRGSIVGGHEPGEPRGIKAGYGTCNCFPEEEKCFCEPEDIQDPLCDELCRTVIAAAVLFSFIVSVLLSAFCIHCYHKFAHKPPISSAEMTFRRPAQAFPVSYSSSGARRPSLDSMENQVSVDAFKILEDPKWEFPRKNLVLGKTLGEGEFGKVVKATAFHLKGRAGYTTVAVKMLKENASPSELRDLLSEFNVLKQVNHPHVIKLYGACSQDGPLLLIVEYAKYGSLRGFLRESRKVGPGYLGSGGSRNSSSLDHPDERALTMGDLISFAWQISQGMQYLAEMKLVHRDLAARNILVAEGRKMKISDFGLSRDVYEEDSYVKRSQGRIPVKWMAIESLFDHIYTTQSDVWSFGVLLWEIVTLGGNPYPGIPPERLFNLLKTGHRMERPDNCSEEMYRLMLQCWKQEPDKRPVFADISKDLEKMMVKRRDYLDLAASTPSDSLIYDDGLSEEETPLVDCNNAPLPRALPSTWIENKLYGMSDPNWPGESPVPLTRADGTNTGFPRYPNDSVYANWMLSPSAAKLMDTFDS
UniProt Q9Y2U5, sequence (whole entry, looked up): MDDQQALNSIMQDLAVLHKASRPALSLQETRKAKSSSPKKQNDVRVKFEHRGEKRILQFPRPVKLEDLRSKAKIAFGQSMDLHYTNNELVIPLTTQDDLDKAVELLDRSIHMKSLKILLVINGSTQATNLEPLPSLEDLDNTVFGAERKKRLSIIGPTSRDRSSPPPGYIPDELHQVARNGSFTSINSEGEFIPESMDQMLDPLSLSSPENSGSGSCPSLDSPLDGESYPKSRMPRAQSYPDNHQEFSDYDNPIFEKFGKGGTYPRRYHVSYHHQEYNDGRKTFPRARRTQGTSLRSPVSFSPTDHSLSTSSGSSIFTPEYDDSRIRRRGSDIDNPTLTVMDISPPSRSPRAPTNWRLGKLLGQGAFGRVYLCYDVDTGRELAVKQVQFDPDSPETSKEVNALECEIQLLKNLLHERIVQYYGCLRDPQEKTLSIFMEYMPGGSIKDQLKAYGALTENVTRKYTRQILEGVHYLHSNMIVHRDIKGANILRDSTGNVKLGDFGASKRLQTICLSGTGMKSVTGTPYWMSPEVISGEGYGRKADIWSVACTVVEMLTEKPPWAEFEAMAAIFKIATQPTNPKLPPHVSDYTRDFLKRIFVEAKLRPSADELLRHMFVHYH
UniProt Q00535, sequence (whole entry, looked up): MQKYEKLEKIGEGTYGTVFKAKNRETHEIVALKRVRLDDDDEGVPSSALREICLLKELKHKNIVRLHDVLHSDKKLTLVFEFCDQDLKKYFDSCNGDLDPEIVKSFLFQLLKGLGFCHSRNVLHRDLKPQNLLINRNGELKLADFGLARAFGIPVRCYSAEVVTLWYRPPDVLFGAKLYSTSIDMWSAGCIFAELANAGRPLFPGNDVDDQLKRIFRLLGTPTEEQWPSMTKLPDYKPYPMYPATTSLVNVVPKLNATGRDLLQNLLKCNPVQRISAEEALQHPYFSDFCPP

Block 1 — concentration: 1 µM; endpoint: remaining binding
Structure (SMILES): CCC1(c2cccc(-c3cn(C)nc3C)c2)C2=C(Nc3n[nH]cc31)C(F)C(C)(C)CC2=O (single isomer, unassigned)
target = Macrophage colony-stimulating factor 1 receptor, autoinhibited (CSF1R, Homo sapiens, UniProt P07333); effect on = kinase binding; method = KINOMEscan; relative to = DMSO control; value = 93%
target = MAPK3 (Homo sapiens, UniProt P27361); effect on = binding; method = competition with immobilised ligand; value = 93%
target = NUAK2 (Homo sapiens, UniProt Q9H093); effect on = kinase binding; method = KINOMEscan; relative to = DMSO control; value = 100%
target = MAP3K2 (Homo sapiens, UniProt Q9Y2U5); effect on = kinase binding; method = KINOMEscan; relative to = DMSO control; value = 100%
target = YES1 (Homo sapiens, UniProt P07947); effect on = kinase binding; method = KINOMEscan; relative to = DMSO control; value = 100%
target = RET (Homo sapiens, UniProt P07949, V804M); effect on = binding; method = competition with immobilised ligand; value = 89%
target = EPHA1 (Homo sapiens, UniProt P21709); effect on = kinase binding; method = KINOMEscan; relative to = DMSO control; value = 96%
target = PAK2 (Homo sapiens, UniProt Q13177); effect on = binding; method = competition with immobilised ligand; value = 100%
target = TAOK3 (Homo sapiens, UniProt Q9H2K8); effect on = kinase binding; method = KINOMEscan; relative to = DMSO control; value = 96%
target = STK33 (Homo sapiens, UniProt Q9BYT3); effect on = binding; method = competition with immobilised ligand; value = 96%
target = MAPK4 (Homo sapiens, UniProt P31152); effect on = binding; method = competition with immobilised ligand; value = 100%
target = MAP2K7 (Homo sapiens, UniProt O14733); effect on = binding; method = competition with immobilised ligand; value = 88%
target = CAMK2A (Homo sapiens, UniProt Q9UQM7); effect on = kinase binding; method = KINOMEscan; relative to = DMSO control; value = 100%
target = KIT (Homo sapiens, UniProt P10721, D816H); effect on = binding; method = competition with immobilised ligand; value = 100%
target = LIM domain kinase 2 (LIMK2, Homo sapiens, UniProt P53671); effect on = kinase binding; method = KINOMEscan; relative to = DMSO control; value = 95%
target = CHEK2 (Homo sapiens, UniProt O96017); effect on = kinase binding; method = KINOMEscan; relative to = DMSO control; value = 100%

Block 2 — endpoint: remaining binding
Structure (SMILES): COc1cc(-c2nc3ccc(C(=O)NCCCN(C)C)cc3n2C2CCC2)cc(OC)c1OC
target = MTOR (Homo sapiens, UniProt P42345); effect on = binding; method = competition with immobilised ligand; concentration = 1 µM; value = 100%
target = NEK3 (Homo sapiens, UniProt P51956); effect on = binding; method = competition with immobilised ligand; concentration = 1 µM; value = 76%
target = CDC42BPB (Homo sapiens, UniProt Q9Y5S2); effect on = binding; method = competition with immobilised ligand; concentration = 1 µM; value = 96%
target = IRAK4 (Homo sapiens, UniProt Q9NWZ3); effect on = binding; method = competition with immobilised ligand; concentration = 1 µM; value = 80%
target = Ribosomal protein S6 kinase alpha-2, C-terminal kinase domain (RPS6KA2, Homo sapiens, UniProt Q15349); effect on = binding; method = competition with immobilised ligand; concentration = 1 µM; value = 82%
target = RET (Homo sapiens, UniProt P07949, V804L); effect on = binding; method = competition with immobilised ligand; concentration = 1 µM; value = 83%
target = EGFR (Homo sapiens, UniProt P00533, G719S); effect on = binding; method = competition with immobilised ligand; concentration = 1 µM; value = 93%
target = KIT (Homo sapiens, UniProt P10721, L576P); effect on = binding; method = competition with immobilised ligand; concentration = 1 µM; value = 100%
target = PIP4K2B (Homo sapiens, UniProt P78356); effect on = binding; method = competition with immobilised ligand; concentration = 1 µM; value = 100%
target = CHEK2 (Homo sapiens, UniProt O96017); effect on = binding; method = competition with immobilised ligand; concentration = 1 µM; value = 100%
target = LATS1 (Homo sapiens, UniProt O95835); effect on = binding; method = competition with immobilised ligand; concentration = 1 µM; value = 95%
target = PRKD2 (Homo sapiens, UniProt Q9BZL6); effect on = binding; method = competition with immobilised ligand; concentration = 1 µM; value = 99%
target = Non-receptor tyrosine-protein kinase TYK2, JH2 (TYK2, Homo sapiens, UniProt P29597); effect on = binding; method = competition with immobilised ligand; concentration = 1 µM; value = 83%
target = ROS1 (Homo sapiens, UniProt P08922); effect on = binding; method = competition with immobilised ligand; concentration = 1 µM; value = 88%
target = NEK4 (Homo sapiens, UniProt P51957); effect on = binding; method = competition with immobilised ligand; concentration = 1 µM; value = 99%
target = PIP5K1C (Homo sapiens, UniProt O60331); effect on = binding; method = competition with immobilised ligand; concentration = 1 µM; value = 43%
target = MAP3K2 (Homo sapiens, UniProt Q9Y2U5); effect on = binding; method = competition with immobilised ligand; concentration = 1 µM; value = 61%
target = Tyrosine-protein kinase JAK1, JH2 (JAK1, Homo sapiens, UniProt P23458); effect on = binding; method = competition with immobilised ligand; concentration = 1 µM; value = 92%
target = PAK6 (Homo sapiens, UniProt Q9NQU5); effect on = binding; method = competition with immobilised ligand; concentration = 1 µM; value = 100%
target = OXSR1 (Homo sapiens, UniProt O95747); effect on = binding; method = competition with immobilised ligand; concentration = 1 µM; value = 100%
target = MAST1 (Homo sapiens, UniProt Q9Y2H9); effect on = binding; method = competition with immobilised ligand; concentration = 1 µM; value = 100%
target = MKNK1 (Homo sapiens, UniProt Q9BUB5); effect on = binding; method = competition with immobilised ligand; concentration = 1 µM; value = 90%
target = EPHB3 (Homo sapiens, UniProt P54753); effect on = binding; method = competition with immobilised ligand; concentration = 1 µM; value = 100%
target = FLT3 ITD D835V human; method = KINOMEscan; concentration = 1000 nM; relative to = DMSO control; value = 81%
target = CDK5 (Homo sapiens, UniProt Q00535); effect on = binding; method = competition with immobilised ligand; concentration = 1 µM; value = 100%

Block 3 — effect on: thermal unfolding; method: differential scanning fluorimetry; concentration: 5.5 µM; direction: higher = more unfolded; endpoint: SYPRO Orange fluorescence
Structure (SMILES): C[C@@H]1CN(c2ccc(-c3cc(C(=O)NCCOCCOCCOCCOCCNC(=O)Cn4cc(-c5[nH]cc(C(=O)N[C@@H](CC(N)=O)c6ccc(F)c(Cl)c6)c5-c5ccc(Cl)cc5F)cn4)ccc3F)cc2NC(=O)c2c[nH]c(=O)cc2C(F)(F)F)C[C@H](C)N1C
DCAF1: DDB1- and CUL4-associated factor 1 (DCAF1, Homo sapiens, UniProt Q9Y4B6)
UniProt Q9Y4B6, sequence (whole entry, looked up): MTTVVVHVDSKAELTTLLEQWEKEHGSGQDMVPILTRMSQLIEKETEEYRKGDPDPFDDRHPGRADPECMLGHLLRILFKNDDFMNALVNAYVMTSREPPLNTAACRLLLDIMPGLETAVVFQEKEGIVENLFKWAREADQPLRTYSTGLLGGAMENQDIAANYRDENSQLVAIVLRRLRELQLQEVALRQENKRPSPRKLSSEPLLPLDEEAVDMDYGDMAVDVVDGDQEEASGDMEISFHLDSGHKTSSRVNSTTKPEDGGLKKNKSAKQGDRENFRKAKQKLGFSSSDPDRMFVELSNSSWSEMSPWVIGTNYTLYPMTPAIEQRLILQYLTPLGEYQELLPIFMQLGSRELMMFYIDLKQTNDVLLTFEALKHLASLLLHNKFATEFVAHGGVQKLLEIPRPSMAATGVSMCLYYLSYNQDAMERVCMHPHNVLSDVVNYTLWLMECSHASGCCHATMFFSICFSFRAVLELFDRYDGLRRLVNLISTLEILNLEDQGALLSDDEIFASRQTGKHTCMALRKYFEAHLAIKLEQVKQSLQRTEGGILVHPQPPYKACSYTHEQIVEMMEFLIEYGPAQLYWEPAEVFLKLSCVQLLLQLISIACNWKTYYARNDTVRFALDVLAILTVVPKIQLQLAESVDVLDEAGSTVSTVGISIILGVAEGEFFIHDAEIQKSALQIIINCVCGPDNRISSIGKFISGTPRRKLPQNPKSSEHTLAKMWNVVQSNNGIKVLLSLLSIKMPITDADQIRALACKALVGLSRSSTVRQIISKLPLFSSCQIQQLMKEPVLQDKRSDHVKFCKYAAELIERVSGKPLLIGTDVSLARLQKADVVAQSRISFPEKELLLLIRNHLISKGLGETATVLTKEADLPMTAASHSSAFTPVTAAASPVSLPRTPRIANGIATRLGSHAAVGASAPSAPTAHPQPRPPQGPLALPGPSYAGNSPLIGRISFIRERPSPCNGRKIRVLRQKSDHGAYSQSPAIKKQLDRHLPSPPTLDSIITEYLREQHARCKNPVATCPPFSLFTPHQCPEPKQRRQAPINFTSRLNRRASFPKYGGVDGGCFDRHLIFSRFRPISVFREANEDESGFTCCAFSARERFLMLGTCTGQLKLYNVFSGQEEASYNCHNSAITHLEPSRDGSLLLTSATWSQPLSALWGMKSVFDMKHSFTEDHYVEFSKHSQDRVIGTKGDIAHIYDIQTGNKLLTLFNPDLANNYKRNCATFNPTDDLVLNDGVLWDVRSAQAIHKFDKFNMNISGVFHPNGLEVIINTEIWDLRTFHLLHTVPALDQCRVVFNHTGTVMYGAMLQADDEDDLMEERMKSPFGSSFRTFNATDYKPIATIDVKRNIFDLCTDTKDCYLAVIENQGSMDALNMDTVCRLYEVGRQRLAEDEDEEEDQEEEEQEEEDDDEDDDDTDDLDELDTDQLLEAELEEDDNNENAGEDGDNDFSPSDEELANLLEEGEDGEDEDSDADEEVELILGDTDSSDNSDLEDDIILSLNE
WDR5: WD repeat-containing protein 5 (WDR5, Homo sapiens, UniProt P61964)
target = DCAF1; temperature = 36.6 °C; value = 9340 a.u.
target = DCAF1; temperature = 47 °C; value = 13200 a.u.
target = DCAF1; temperature = 75.81 °C; value = 48400 a.u.
target = WDR5; temperature = 55.01 °C; value = 13600 a.u.
target = WDR5; temperature = 73.21 °C; value = 8570 a.u.
target = DCAF1; temperature = 69.21 °C; value = 55200 a.u.
target = WDR5; temperature = 57.61 °C; value = 12200 a.u.
target = DCAF1; temperature = 48.4 °C; value = 13600 a.u.
target = DCAF1; temperature = 92.81 °C; value = 32300 a.u.
target = DCAF1; temperature = 73.61 °C; value = 50800 a.u.
target = DCAF1; temperature = 32.2 °C; value = 8230 a.u.

Block 4 — action: degrader; method: automated immunoblot; cell line: HCC1569; time: 24 h; endpoint: Dmax
Target: Membrane-associated tyrosine- and threonine-specific cdc2-inhibitory kinase (PKMYT1, Homo sapiens, UniProt Q99640)
Target sequence (Q99640 1-499): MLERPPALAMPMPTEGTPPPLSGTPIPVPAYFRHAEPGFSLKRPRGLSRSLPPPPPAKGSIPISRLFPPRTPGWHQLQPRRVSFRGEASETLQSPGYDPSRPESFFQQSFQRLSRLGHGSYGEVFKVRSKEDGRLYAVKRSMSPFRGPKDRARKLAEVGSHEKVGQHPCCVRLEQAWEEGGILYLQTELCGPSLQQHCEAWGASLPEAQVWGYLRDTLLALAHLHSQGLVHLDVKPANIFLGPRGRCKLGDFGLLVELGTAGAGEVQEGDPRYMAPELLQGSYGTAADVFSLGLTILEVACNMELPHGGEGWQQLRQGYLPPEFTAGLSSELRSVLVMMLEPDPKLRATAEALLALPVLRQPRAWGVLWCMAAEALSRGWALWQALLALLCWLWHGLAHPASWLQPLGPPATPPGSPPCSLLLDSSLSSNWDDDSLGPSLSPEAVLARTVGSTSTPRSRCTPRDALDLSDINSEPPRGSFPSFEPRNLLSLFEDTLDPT
Compound = Cc1ccc(O)c(C)c1-c1cnc2[nH]c(-c3cnc(N4CCC(CN5CCN(c6cc7c(cc6F)c(N6CCC(=O)NC6=O)nn7C)CC5)CC4)nc3)cc2c1C#N; value = 70%
Compound = Cc1ccc(O)c(C)c1-c1cnc2[nH]c(-c3cnc(N4CCC5(CC4)CC(CN4CCN(c6ccc(NC7CCC(=O)NC7=O)cc6F)CC4)C5)nc3)cc2c1C#N (stereo not drawn); value = 91%
Compound = Cc1ccc(O)c(C)c1-c1cnc2[nH]c(-c3cnc(N4CCC(CN5CCC(c6ccc(NC7CCC(=O)NC7=O)cc6F)CC5)CC4)nc3)cc2c1C#N (stereo not drawn); value = 86%
Compound = Cc1ccc(O)c(C)c1-c1cnc2[nH]c(-c3cnc(N4CCC5(CC4)CC(N4CCN(c6ccc(N[C@H]7CCC(=O)NC7=O)cc6F)CC4)CO5)nc3)cc2c1C#N (single isomer, unassigned); value = 90%
Compound = Cc1ccc(O)c(C)c1-c1cnc2[nH]c(-c3cnc(N4CC5(CC(CN6CCN(c7ccc(NC8CCC(=O)NC8=O)cc7F)CC6)C5)C4)nc3)cc2c1C#N (stereo not drawn); value = 66%
Compound = Cc1ccc(O)c(C)c1-c1cnc2[nH]c(-c3cnc(N4CCC(CN5CCN(c6ccc(NC7CCC(=O)NC7=O)cc6F)CC5)CC4)nc3)cc2c1C#N (stereo not drawn); value = 91%
Compound = Cc1ccc(O)c(C)c1-c1cnc2[nH]c(-c3cnc(N4CCC(CCN5CCN(c6ccc(NC7CCC(=O)NC7=O)cc6F)CC5)CC4)nc3)cc2c1C#N (stereo not drawn); value = 87%

Single results of other studies
KRAS G12D GDP-bound: GTPase KRas, GDP-bound (KRAS, Homo sapiens, UniProt P01116, G12D)
SMILES = Cc1ncsc1-c1ccc(C2(NC(=O)C3CC(O)CN3C(=O)C(NC(=O)c3ccc(COc4c(-c5c(C)c(F)cc6[nH]ncc56)c(C5CC5)cc5c(N6CC7CC6CN7)nc(OC6CCOCC6)nc45)cc3)C(C)C)CC2)cc1 (stereo not drawn); tested on = AsPC-1; test = in-cell ELISA; setting = 300 nM, individual replicates; endpoint = phospho-ERK1/2 level; value = 56.5% and 20.3% and 33% and 46.9% and 22.9% and 21.2%
SMILES = Cc1ncsc1-c1ccc(C(CO)NC(=O)C2CC(O)CN2C(=O)C(NC(=O)c2ccc(COc3c(-c4c(C)c(F)cc5[nH]ncc45)c(C4CC4)cc4c(N5CC6CC5CN6)nc(OC5CCOCC5)nc34)cc2)C(C)C)cc1 (stereo not drawn); tested on = AsPC-1; test = CellTiter-Glo; setting = 100 nM, 6 days; endpoint = viability; value = 42.3% and 64.9% and 75.9%
SMILES = CCN1CCN(Cc2ccc(COc3c(-c4c(C)c(F)cc5[nH]ncc45)c(C4CC4)cc4c(N5C[C@@H]6C[C@H]5CN6)nc(OC5CCOCC5)nc34)cc2)C(=O)C1; tested on = KRAS G12D GDP-bound; test = SPR, multi-cycle; system = immobilized KRAS G12D; setting = binary, geometric mean; endpoint = koff; value = 0.00387 s⁻¹
SMILES = Cc1ncsc1-c1ccc(C(CO)NC(=O)C2CC(O)CN2C(=O)C(C(C)C)n2cc(-c3ccc(COc4c(-c5c(C)c(F)cc6[nH]ncc56)c(C5CC5)cc5c(N6CC7CC6CN7)nc(OC6CCOCC6)nc45)cc3)nn2)cc1 (stereo not drawn); tested on = KRAS G12D GDP-bound; test = SPR, single-cycle; system = immobilized KRAS G12D; setting = binary; endpoint = kon; value = 150000 M⁻¹ s⁻¹ and 208000 M⁻¹ s⁻¹

Repeated from above (block 2):
target = MTOR (Homo sapiens, UniProt P42345); effect on = binding; method = competition with immobilised ligand; concentration = 1 µM; value = 100%
target = NEK3 (Homo sapiens, UniProt P51956); effect on = binding; method = competition with immobilised ligand; concentration = 1 µM; value = 76%
target = CDC42BPB (Homo sapiens, UniProt Q9Y5S2); effect on = binding; method = competition with immobilised ligand; concentration = 1 µM; value = 96%
target = IRAK4 (Homo sapiens, UniProt Q9NWZ3); effect on = binding; method = competition with immobilised ligand; concentration = 1 µM; value = 80%
target = Ribosomal protein S6 kinase alpha-2, C-terminal kinase domain (RPS6KA2, Homo sapiens, UniProt Q15349); effect on = binding; method = competition with immobilised ligand; concentration = 1 µM; value = 82%
target = RET (Homo sapiens, UniProt P07949, V804L); effect on = binding; method = competition with immobilised ligand; concentration = 1 µM; value = 83%
target = EGFR (Homo sapiens, UniProt P00533, G719S); effect on = binding; method = competition with immobilised ligand; concentration = 1 µM; value = 93%
